Measured values of several laboratories.
Protocols differ between the studies behind these lines. ± marks the error that the study gave.

Structure (SMILES) | cell line | test | setting | EC50 [µM]
CCNC(=O)c1noc(-c2cc(C(C)C)c(O)cc2O)c1-c1ccc(CN2CCOCC2)cc1 | iPSC-derived cardiomyocytes | concentration-response curve, measured: MyBP-C protein level | 24 h | 1.6
C[C@]12CCCN1CC1=NNC(=O)c3cc(F)cc4[nH]c2c1c34 | SGC-7901 gastric cancer cells | cell viability | concentration not given, with: with temozolomide | > 10
[Cl-].[Cl-].[Ru+2].c1cnc2c(c1)ccc1cccnc12.c1cnc2c(c1)ccc1cccnc12.c1csc(-c2ccc(-c3ccc(-c4ccc(-c5nc6c7cccnc7c7ncccc7c6[nH]5)s4)s3)s2)c1 | SK-MEL-28 | resazurin viability | dark, normoxia | 84
C[n+]1cc2c3c(ccc2c2ccc4cc5c(cc4c21)OCO5)OCO3 | iPSC-derived cardiomyocytes | concentration-response curve, measured: MyBP-C/MYH ratio | 24 h | 7.2
O=C1c2ccccc2N=C2N(c3ccccc3)CCC12O (stereo not shown) | COS-7 | cytokinesis | 24 h | 24
Cc1nn(-c2nc3c(F)cc(F)cc3s2)c(O)c1C(c1ccc(C(F)(F)F)cc1)c1c(C)nn(-c2nc3c(F)cc(F)cc3s2)c1O | THP1-Dual | IFN reporter gene, inhibitor, luciferase reporter | with: HT-DNA | 12.6
CCN(N=Cc1ccc(Br)cc1)C(=O)C1CC(=O)N(c2ccc(F)cc2F)C1 (stereo not shown) | human foreskin fibroblasts CRL-4001 | cell viability, MTT | 72 h | 91.7 ± 14.3
COc1cc(/C=C/c2ccc(O)cc2)cc(OC)c1 | iPSC-derived cardiomyocytes | concentration-response curve, measured: MyBP-C/MYH ratio | 24 h | 16.8
[Cl-].[Cl-].[Ru+2].c1cnc2c(c1)ccc1cccnc12.c1cnc2c(c1)ccc1cccnc12.c1csc(-c2ccc(-c3ccc(-c4nc5c6cccnc6c6ncccc6c5[nH]4)s3)s2)c1 | SK-MEL-28 | cell viability, resazurin | hypoxia 1% O2, with: green visible light | ~1
CCCCCCCCCc1ccc(OCCOCCOCCOCCOCCOCCOCCOCCOCCO)cc1 | iPSC-derived cardiomyocytes | concentration-response curve, measured: MyBP-C protein level | 24 h | 24.4
COc1cccc2c1C(=O)c1c(O)c3c(c(O)c1C2=O)C[C@@](O)(C(=O)CO)C[C@@H]3O[C@H]1C[C@H](N)[C@H](O)[C@H](C)O1 | human foreskin fibroblasts CRL-4001 | cell viability, MTT | 72 h | 0.33 ± 0.04
C=C1C(=O)O[C@H]2[C@H]1CC/C(C)=C/CC[C@@]1(C)O[C@@H]21 | iPSC-derived cardiomyocytes | concentration-response curve, measured: MyBP-C/MYH ratio | 24 h | 8.5
CCCC[C@@H]1NC(=O)[C@H](Cc2ccc(O)cc2)NC(=O)[C@@H]2CCCN2C(=O)[C@H](CC(=O)O)NC(=O)[C@H](C)NC(=O)[C@H](Cc2ccccc2)NC(=O)[C@@H]2CSCCC(=O)N3CN(CN(C3)C(=O)CCSC[C@@H](C(=O)N[C@@H](CNC(=O)CCOCCOCCOCCOCCOCCOCCOCCOCCOCCOCCOCCOCCn3cc(CCC(=O)NCCC(=O)N(C)CC(=O)N(C)CC(=O)N(C)CC(=O)N(C)CC(=O)N(C)CC(=O)N(C)CC(=O)N(C)CC(=O)N(C)CC(=O)N(C)CC(=O)N(C)CC(=O)N[C@H]4CSCCC(=O)N5CN6CN(C5)C(=O)CCSC[C@H](NC(=O)[C@@H](CC(=O)O)NC(=O)[C@H](Cc5cccc7ccccc57)NC(=O)[C@@H]5CCCN5C4=O)C(=O)N[C@@H](CCSC)C(=O)N[C@@H](CCCCNC(=N)N)C(=O)N[C@@H](CC(=O)O)C(=O)N[C@@H](Cc4c[nH]c5ccccc45)C(=O)N[C@@H](CO)C(=O)N[C@@H]([C@@H](C)O)C(=O)N4CCC[C@H]4C(=O)N4C[C@H](O)C[C@H]4C(=O)N[C@@H](Cc4c[nH]c5ccccc45)C(=O)N[C@H](C(N)=O)CSCCC6=O)nn3)C(N)=O)NC1=O)C(=O)CCSC[C@H](NC(C)=O)C(=O)N[C@@H](CC(C)(C)C)C(=O)N1CCC[C@H]1C(=O)N[C@@H](CCC(=O)O)C(=O)N[C@H](C)C(=O)N1CCC[C@H]1C(=O)N[C@@H](Cc1ccc(O)cc1)C(=O)N2 | human PBMC with HT-1376 coculture | IL-2 secretion | with: anti-CD3 | 0.00069
CC(C)NCCCn1c(Sc2cc3c(cc2I)OCO3)nc2c(N)ncnc21 | iPSC-derived cardiomyocytes | concentration-response curve, measured: MyBP-C/MYH ratio | 24 h | 1.3
C[C@H](CCC(=O)O)[C@H]1CC[C@H]2[C@@H]3CC[C@@H]4C[C@H](O)CC[C@]4(C)[C@H]3C[C@H](O)[C@]12C | Caco-2 (undifferentiated) | FGF19 secretion, agonist, ELISA |  | 0.00045
S=C(NCc1ccc2c(c1)OCO2)N1CCN(c2ncnc3c2oc2ccccc23)CC1 | iPSC-derived neurons, 2-week differentiating | metabolic activity, CellTiter-Blue | 24 h | > 10
COc1cnc2cccc(N3CCc4c(cc(Cn5ccnc5C)cc4-c4cn(C)nc4C(F)(F)F)C3=O)c2c1 | KG-1 | cell growth, inhibitor | 120 h | > 30
CCn1c(=O)/c(=C2\Sc3cc(Cl)ccc3N2C)s/c1=C\c1scc[n+]1Cc1ccccc1 | iPSC-derived cardiomyocytes | concentration-response curve, measured: MyBP-C protein level | 24 h | 20.8
O=C(NN=Cc1ccc([N+](=O)[O-])s1)C1CC(=O)N(c2ccc(F)cc2F)C1 (stereo not shown) | human foreskin fibroblasts CRL-4001 | cell viability, MTT | 72 h | 10.6 ± 2.1
[Cl-].[Cl-].[Ru+2].c1cnc2c(c1)ccc1cccnc12.c1cnc2c(c1)ccc1cccnc12.c1csc(-c2nc3c4cccnc4c4ncccc4c3[nH]2)c1 | SK-MEL-28 |  | normoxia, with: visible light 400-700 nm, 100 J/cm2 | ~0.6
C=C1C(=O)OC2C1CC1OC2C(C)CCC/C(C)=C\CCC1(C)O (stereo not shown) | iPSC-derived cardiomyocytes | concentration-response curve, measured: MyBP-C protein level |  | 15.9
CCn1cc(-c2cc(Cn3ccoc3=N)cc3c2CCN([C@@H](C)c2cc(OC)ccn2)C3=O)c(C(F)(F)F)n1 | NCI-H292 | cell growth, inhibitor | 120 h | 0.0288
CC(C)NCC(O)c1ccc(O)c(O)c1 (stereo not shown) | primary mouse white abdominal adipocytes | lipolysis, measured: glycerol release | 60 min | 0.0449
[Cl][Ru][Cl].c1cnc2c(c1)ccc1cccnc12.c1cnc2c(c1)ccc1cccnc12.c1cnc2c(c1)ccc1cccnc12 | SK-MEL-28 |  | normoxia, with: visible light 400-700 nm, 100 J/cm2 | 22
CCn1cc(-c2cc(Cn3ccnc3)cc3c2CCN([C@H](c2cc(OC)ccn2)C2CC2)C3=O)c(C(F)(F)F)n1 | NCI-H292 | cell growth, inhibitor | 120 h | 19.1

Excerpt of the above:
Structure (SMILES) | cell line | test | setting | EC50 [µM]
S=C(NCc1ccc2c(c1)OCO2)N1CCN(c2ncnc3c2oc2ccccc23)CC1 | iPSC-derived neurons, 2-week differentiating | metabolic activity, CellTiter-Blue | 24 h | > 10
